Measurements gathered from unrelated publications.
Every numbered part comes from another study and shows a few of its results, in no order.
Sequence of UniProt P15374 (whole entry, looked up): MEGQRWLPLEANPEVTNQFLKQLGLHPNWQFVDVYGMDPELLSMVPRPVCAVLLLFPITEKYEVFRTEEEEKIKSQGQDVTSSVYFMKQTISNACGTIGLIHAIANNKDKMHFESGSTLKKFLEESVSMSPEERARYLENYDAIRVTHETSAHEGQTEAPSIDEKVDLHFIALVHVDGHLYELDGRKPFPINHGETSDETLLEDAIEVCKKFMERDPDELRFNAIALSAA
Sequence of UniProt O75604 (whole entry, looked up): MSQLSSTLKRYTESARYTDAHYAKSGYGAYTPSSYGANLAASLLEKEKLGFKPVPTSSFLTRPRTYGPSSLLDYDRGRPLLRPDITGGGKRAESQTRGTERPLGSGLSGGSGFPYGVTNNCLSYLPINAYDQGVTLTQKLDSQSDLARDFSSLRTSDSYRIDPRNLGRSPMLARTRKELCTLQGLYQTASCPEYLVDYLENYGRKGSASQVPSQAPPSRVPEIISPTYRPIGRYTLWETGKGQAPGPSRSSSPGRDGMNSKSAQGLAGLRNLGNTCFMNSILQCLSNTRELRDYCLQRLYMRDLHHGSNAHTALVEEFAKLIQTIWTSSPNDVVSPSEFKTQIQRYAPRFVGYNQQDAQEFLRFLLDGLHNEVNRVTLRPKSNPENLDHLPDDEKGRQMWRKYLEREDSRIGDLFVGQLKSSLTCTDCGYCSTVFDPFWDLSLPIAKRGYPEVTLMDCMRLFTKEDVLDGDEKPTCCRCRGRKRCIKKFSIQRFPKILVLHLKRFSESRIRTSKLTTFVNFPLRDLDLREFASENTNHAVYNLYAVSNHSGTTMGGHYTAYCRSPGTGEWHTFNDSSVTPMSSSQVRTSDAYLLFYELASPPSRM
Sequence of UniProt Q8N6M0 (whole entry, looked up): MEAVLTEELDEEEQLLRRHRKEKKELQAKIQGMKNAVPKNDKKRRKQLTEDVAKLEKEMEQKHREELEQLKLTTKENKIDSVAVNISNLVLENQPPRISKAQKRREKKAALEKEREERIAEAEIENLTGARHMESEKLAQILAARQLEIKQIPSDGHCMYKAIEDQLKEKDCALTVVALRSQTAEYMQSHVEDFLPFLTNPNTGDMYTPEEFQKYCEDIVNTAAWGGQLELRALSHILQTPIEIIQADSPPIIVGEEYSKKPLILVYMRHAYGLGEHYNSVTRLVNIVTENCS
Sequence of UniProt P54578 (whole entry, looked up): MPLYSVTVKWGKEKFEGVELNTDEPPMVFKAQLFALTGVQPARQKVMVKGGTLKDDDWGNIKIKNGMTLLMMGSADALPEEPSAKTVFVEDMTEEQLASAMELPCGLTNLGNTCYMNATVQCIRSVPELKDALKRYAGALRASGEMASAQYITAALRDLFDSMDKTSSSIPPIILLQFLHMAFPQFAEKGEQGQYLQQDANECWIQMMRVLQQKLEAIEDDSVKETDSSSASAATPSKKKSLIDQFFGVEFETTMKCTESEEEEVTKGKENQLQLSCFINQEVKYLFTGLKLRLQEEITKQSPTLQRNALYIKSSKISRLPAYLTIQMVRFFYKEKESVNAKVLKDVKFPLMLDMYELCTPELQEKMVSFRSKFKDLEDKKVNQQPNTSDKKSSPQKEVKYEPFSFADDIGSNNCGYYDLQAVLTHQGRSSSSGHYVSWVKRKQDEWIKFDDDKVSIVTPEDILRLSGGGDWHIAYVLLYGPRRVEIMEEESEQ

Sample 1 — target: UBE2D2 UBC core domain (UniProt P62837); technique: yeast two-hybrid; sample: yeast; setting: mostly zero background; reference: not given; direction: higher = stronger interaction; quantity: lacZ reporter activity
Sequence of UniProt P62837 (whole entry, looked up): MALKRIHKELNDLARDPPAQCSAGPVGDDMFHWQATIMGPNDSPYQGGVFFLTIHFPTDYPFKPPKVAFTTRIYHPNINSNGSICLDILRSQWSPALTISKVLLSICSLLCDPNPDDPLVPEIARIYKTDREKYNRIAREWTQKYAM
B1: RC3H2 RING domain (UniProt Q9HBD1); chain QAAQWTEFLSCPICYNEFDENVHKPISLGCSHTVCKTCLNKLHRKACPFDQTAINTDIDVL
B2: UHRF2 RING domain (UniProt Q96PU4); chain CGGDPEKKCHSCSCRVCGGKHEPNMQLLCDECNVAYHIYCLNPPLDKVPEEEYWYCPSCKTDSSEVVKAGER
KTLSRFGIQPCSICLGDAKDPVCLPCDHVHCLRCLRAWFASEQMICPYCLTALPDEFSPA (RNF213 RING domain (UniProt Q63HN8)): 0
DDENSDNSNECVVCLSDLRDTLILPCRHLCLCTSCADTLRYQANNCPICRLPFRALLQIR (MGRN1 RING domain (UniProt O60291)): 0
QHHELTSLFECPVCFDYVLPPILQCQAGHLVCNQCRQKLSCCPTCRGALTPSIRNL (SIAH2 RING domain (UniProt O43255)): 0
B1 (RC3H2 RING domain): 0
QLRRLQEERTCKVCMDKEVSVVFIPCGHLVVCQECAPSLRKCPICRGIIKGTVRTF (BIRC2 RING domain (UniProt Q13490)): 0
B2 (UHRF2 RING domain): 0

Sample 2 — observed: peptide-MHC binding; form: peptide; concentration: concentration not given; quantity: binding
Target: HLA class I histocompatibility antigen, A alpha chain, allele A*26:03 (Homo sapiens, UniProt P04439)
AEALLADGL: inactive
YKEPNSIIL: inactive
KRLLLKLDF: inactive
EVPEMFGAE: inactive
TIHLATAPK: inactive
LEHGLYPQL: inactive
KELENEYYF: inactive
RSLFNTIAVLY: inactive

Sample 3 — Substance: ubiquitin aldehyde; observed: enzyme activity; quantity: inhibition
Ubiquitin carboxyl-terminal hydrolase isozyme L3 (UCHL3, Homo sapiens, UniProt P15374); 0.0001 µM: 4%
Ubiquitin carboxyl-terminal hydrolase 14 (USP14, Homo sapiens, UniProt P54578); 0.1 µM: 100%
Ubiquitin carboxyl-terminal hydrolase 2 (USP2, Homo sapiens, UniProt O75604); 1 µM: 96%
Deubiquitinase OTUD6B (OTUD6B, Homo sapiens, UniProt Q8N6M0); 0.01 µM: 6%

Single results of other studies
CNC[C@H](O)[C@@H](O)[C@H](O)[C@H](O)CO.CNC[C@H](O)[C@@H](O)[C@H](O)[C@H](O)CO.C[C@@H](O[C@H]1OCCN(Cc2nn(P(=O)(O)O)c(=O)[nH]2)[C@H]1c1ccc(F)cc1)c1cc(C(F)(F)F)cc(C(F)(F)F)c1  cell number (HEK-293T-ACE2; Hoechst nuclei count; concentration not given, counter-screen; reference: vehicle): 97.7%

Excerpt of the above (single results of other studies):
CNC[C@H](O)[C@@H](O)[C@H](O)[C@H](O)CO.CNC[C@H](O)[C@@H](O)[C@H](O)[C@H](O)CO.C[C@@H](O[C@H]1OCCN(Cc2nn(P(=O)(O)O)c(=O)[nH]2)[C@H]1c1ccc(F)cc1)c1cc(C(F)(F)F)cc(C(F)(F)F)c1  cell number (HEK-293T-ACE2; Hoechst nuclei count; concentration not given, counter-screen; reference: vehicle): 97.7%
